Experimental data of several laboratories.
Numbered parts are unrelated; each lists some results of a single study.

Block 1 — method: RNA Bind-n-Seq; molecule type: RNA; sample: in vitro; tested at: 20 nM; setting: 6-mer, flanks averaged, single round; together with: 150 mM KCl; relative to: input library; direction: higher = stronger binding
Target: TAR DNA-binding protein 43, full length, His tag (TARDBP, Homo sapiens, UniProt Q13148, residues 1-414)
Oligonucleotide	6-mer enrichment (R)
CGUAAC	0.623
ACCCAC	0.658
AAUGGU	0.888
UUGCAG	0.84
GGGGGC	8.16
GUUAAC	0.611
CUACUA	0.575
UAUACU	0.57

Block 2 — method: RNA Bind-n-Seq; molecule type: RNA; sample: in vitro; tested at: 100 nM; relative to: input RNA pool; direction: higher = stronger binding
Target: RING finger protein unkempt homolog, zinc fingers 1-6, SBP tag (UNK, Homo sapiens, UniProt Q9C0B0, residues 30-357)
Sequence of UniProt Q9C0B0 (30-357, looked up): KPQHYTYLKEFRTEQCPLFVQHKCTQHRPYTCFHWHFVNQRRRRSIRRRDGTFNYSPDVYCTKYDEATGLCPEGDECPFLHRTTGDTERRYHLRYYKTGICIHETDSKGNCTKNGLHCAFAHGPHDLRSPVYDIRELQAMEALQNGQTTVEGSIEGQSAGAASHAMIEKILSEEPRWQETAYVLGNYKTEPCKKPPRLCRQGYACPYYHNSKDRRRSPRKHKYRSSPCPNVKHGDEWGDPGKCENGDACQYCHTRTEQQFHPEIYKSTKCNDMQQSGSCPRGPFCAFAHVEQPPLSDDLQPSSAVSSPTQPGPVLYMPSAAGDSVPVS
Setting: RNA with constant flanks, vertebrate orthologous sites, ends assumed
Constant ends, left off below: GGGAGUUCUACAGUCCGACGAUC … CAACAGAGGAUUGAGCAUCA
Oligonucleotide	bound/input enrichment [ratio]
AUCAUCUGAUUGGAUGAAGACUGUUCCAAGUUAUAACCAGACAAAUAGCUCCAUGGACUUCAGAAAUUAUAUGAUGAGAGAUGAGAAUCUGGAACCACUGCCAAAAAACUGGGAAAUGGC	0.397
AUUACUGUUAAGCACUGUGUUCCAGACGGUGUCUGACUUAGUGUAACCUAGGAGAUUUUCUAGUUUUAUUUUAACGAAACCCUGAUGGGCGCACAGCAGUGAGGAGAACAGCGUCUUUUA	0.796
UCCUCAACUUGUUCUAGCUUGUGAUCCUUCAAAGUUGGGUCAGGCAUUAGUGCUAGAUACUAGAAAUUUUCAUUUCCCUGUUGUUAUUGAUCAGUGGGACAGGCAUUAAUUAAAAACAGA	0.947
AGUAGUUUUAAGCUUGUUUGCACAGUUCUUUUUUUCCAUUGGAAAUGGAAUUCAUUGCCUUAGGUCUUUUUAAAUAGUGUAUUAUCGUUGGGGCUGGCUCUAUGCUUGAAAACCAGUUUA	2.9
CUCUCUGAGCGAUAGUAUUCCAUCUGUAGCAGAUUCACACUCCAGCCAUUUCUCUGAGUUCAGUUGCUCAGAUAUGGAAAGUAUGAAAACUUCCUGUAGCCACGGUUCCAGCGACUAUCA	0.33
UCACUUACAGAGUGGCAUCUAGUCAACAUGCAAGUAGACCAGCUCUGCUGAUUUGAAAUUUAGAUUUUUUAAUUAUGUACUGGGGACAGGUUUUUGUCGCUUUACAUUGCUUCCUAGUUU	3.53
CCAAAAGGCCAAAUUCCCUCCUCCCUUCUACUGCUUCUACCAACUGGAAGCACAGAAAACUAGAAUUUCAUUUAUUUUGUUUUUAAAAUACCUAUGUUGAUUUCUUGUAACAUCCAAUAG	1
UCCUCAACUUGUUCUAGCUUGUGAUCCUUCAAAAUUGGGUCAGGCAUUAGUGCUAGGUACUAGAAAUUUUGCAUUUCUCUAUUGCCAUUGAUCAGAGAGACAGACAUUAAAACAGGAAUA	0.502

Block 3 — method: aptamer microarray, sandwich; molecule type: DNA with 2'F-ANA; sample: in vitro; tested at: 200 nM; together with: Cy3 exosite-II aptamer, 400 nM; direction: higher = stronger binding; oligonucleotide: GGTTGGTGTGGTTGG
Target: Prothrombin, mature alpha-thrombin (F2, Homo sapiens, UniProt P00734)
Setting: whole 15-mer aptamer, many near background
Modification	mean fluorescence intensity
2'F-ANA at 1 4 6 9 13 15	79.1 a.u.
2'F-ANA at 1 3 5 7 9 11 14 15	43.9 a.u.
2'F-ANA at 2 3 4 5 6 7 11 14 15	69.6 a.u.
2'F-ANA at 1 2 3 4 5 9 12 14	83.7 a.u.
2'F-ANA at 4 5 7 8 9 12 14	51.6 a.u.
2'F-ANA at 1 4 6 7 8 10 12 14 15	47.3 a.u.
2'F-ANA at 1 4 10 12 13	89.6 a.u.
2'F-ANA at 1 3 4 10 11 14 15	96.2 a.u.

Mixed results
Molecule	target	assay	system	conditions	measurement	value
FAAPHRGVA	HLA class I histocompatibility antigen, A alpha chain, allele A*80:01 (Homo sapiens, UniProt P04439)	peptide-MHC binding	peptide	concentration not given	binding	inactive

Repeated from above (block 2):
Oligonucleotide	bound/input enrichment [ratio]
UCCUCAACUUGUUCUAGCUUGUGAUCCUUCAAAGUUGGGUCAGGCAUUAGUGCUAGAUACUAGAAAUUUUCAUUUCCCUGUUGUUAUUGAUCAGUGGGACAGGCAUUAAUUAAAAACAGA	0.947
AGUAGUUUUAAGCUUGUUUGCACAGUUCUUUUUUUCCAUUGGAAAUGGAAUUCAUUGCCUUAGGUCUUUUUAAAUAGUGUAUUAUCGUUGGGGCUGGCUCUAUGCUUGAAAACCAGUUUA	2.9
CUCUCUGAGCGAUAGUAUUCCAUCUGUAGCAGAUUCACACUCCAGCCAUUUCUCUGAGUUCAGUUGCUCAGAUAUGGAAAGUAUGAAAACUUCCUGUAGCCACGGUUCCAGCGACUAUCA	0.33
UCACUUACAGAGUGGCAUCUAGUCAACAUGCAAGUAGACCAGCUCUGCUGAUUUGAAAUUUAGAUUUUUUAAUUAUGUACUGGGGACAGGUUUUUGUCGCUUUACAUUGCUUCCUAGUUU	3.53
